Assay results pooled from the literature.
Each numbered part is a random draw from the data of one study; scales do not carry over between parts.

Study 1 — method: universal PBM; form: double-stranded DNA, one strand shown; matrix: in vitro; concentration: not given; reading: higher = stronger binding
Target: Sal-like protein 4, full length isoform B (SALL4, Homo sapiens, UniProt Q9UJQ4-2, residues 1-616)
Setting: 8-mer, flanks averaged, mean of replicates
Residues (chain): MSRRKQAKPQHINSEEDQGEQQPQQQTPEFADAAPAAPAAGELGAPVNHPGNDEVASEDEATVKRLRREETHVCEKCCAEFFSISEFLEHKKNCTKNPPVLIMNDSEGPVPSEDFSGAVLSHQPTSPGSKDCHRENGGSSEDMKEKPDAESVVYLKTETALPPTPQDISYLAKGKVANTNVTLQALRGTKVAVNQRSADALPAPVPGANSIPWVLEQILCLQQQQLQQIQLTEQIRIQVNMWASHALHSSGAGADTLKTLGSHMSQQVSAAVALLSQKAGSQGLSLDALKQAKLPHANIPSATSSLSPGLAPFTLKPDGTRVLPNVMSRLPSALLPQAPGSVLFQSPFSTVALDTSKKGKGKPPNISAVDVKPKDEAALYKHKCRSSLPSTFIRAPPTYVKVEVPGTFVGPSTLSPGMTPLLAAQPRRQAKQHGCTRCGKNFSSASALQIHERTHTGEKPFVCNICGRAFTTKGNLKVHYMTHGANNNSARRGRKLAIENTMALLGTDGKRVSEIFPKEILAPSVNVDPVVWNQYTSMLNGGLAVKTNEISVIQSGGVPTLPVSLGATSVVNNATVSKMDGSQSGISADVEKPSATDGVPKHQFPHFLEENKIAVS
Strand | E-score
TCCTACGA | -0.187
CAGGCGGC | -0.322
CATGCTCG | -0.0507
AATTTCTC | 0.188
ATGTAGTA | 0.271
CATAGCGC | 0.0743
AACATTAA | 0.363
AGCAATAA | 0.271
ATAGTTCG | 0.0977
ACGGGAGT | 0.0318
CAACCCAC | -0.0979
CGACTCTC | -0.148
AGCACGAA | -0.0596
AATGGACT | -0.0258
GGCGATAC | -0.0237
ACCTCCAC | -0.145
CGTGGGGA | -0.216
CATGACCG | -0.165
CGGTGTAG | -0.0871
GACACATC | -0.0608
AGTTCCTG | -0.173
ATCTAGGG | 0.11
AGCCGGGG | -0.407
CTTCTAGA | -0.029
AGTAGGCC | -0.181

Study 2 — method: protein-binding microarray; form: double-stranded DNA, one strand shown; matrix: in vitro; concentration: not given; reading: higher = stronger binding
Target: Hepatocyte nuclear factor 3-beta, forkhead domain (FOXA2, Homo sapiens, UniProt Q9Y261, residues 142-269)
Setting: k-mer, scored over probes, only values ≥0.25
Residues (chain): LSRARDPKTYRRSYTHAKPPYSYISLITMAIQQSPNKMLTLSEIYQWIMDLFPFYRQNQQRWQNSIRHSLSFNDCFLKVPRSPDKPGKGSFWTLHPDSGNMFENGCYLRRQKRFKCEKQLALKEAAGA
Strand | E-score
AACAATGA | 0.284
ATCATGAC | 0.254
TATGTCAA | 0.368
GTACAATA | 0.298
AAAGAATA | 0.269
ACATTCCA | 0.319
TAATCACA | 0.284
ATAGATAG | 0.25
ACATTCAT | 0.291
CATCACAC | 0.268
ATAAATGA | 0.253
ATATAAGA | 0.376
GTTATTCA | 0.324
CATAACAC | 0.293
GTAATGTA | 0.253
CTATTTAC | 0.311
ATACTGAT | 0.301
AGTATTTA | 0.365
TACAGTGA | 0.274
CTCTTATA | 0.291
AATGCAGA | 0.265
GAATGATA | 0.255
TAAGTCAA | 0.255
TTAATAAA | 0.257
GTATCTTA | 0.319

Study 3 — method: aptamer microarray, sandwich; form: DNA with 2'F-ANA; matrix: in vitro; concentration: 200 nM; with: Cy3 exosite-II aptamer, 400 nM; reading: higher = stronger binding; strand: GGTTGGTGTGGTTGG
Target: Prothrombin, mature alpha-thrombin (F2, Homo sapiens, UniProt P00734)
Setting: whole 15-mer aptamer, many near background
Modification | mean fluorescence intensity [a.u.]
2'F-ANA at 1 3 6 8 9 11 13 14 | 78
2'F-ANA at 1 2 6 8 12 | 388
2'F-ANA at 1 2 3 5 7 8 11 13 14 15 | 49.3
2'F-ANA at 2 3 4 5 7 8 9 10 14 15 | 72.9
2'F-ANA at 2 5 8 15 | 79.7
2'F-ANA at 1 4 5 6 7 10 11 14 15 | 58.6
2'F-ANA at 2 10 12 15 | 185
2'F-ANA at 5 11 | 62
2'F-ANA at 7 8 10 12 13 15 | 217
2'F-ANA at 1 2 3 4 7 10 11 14 15 | 46.3
2'F-ANA at 2 3 4 5 6 7 8 9 11 12 | 157
2'F-ANA at 4 5 7 8 9 10 11 14 15 | 61.2
2'F-ANA at 5 6 7 8 10 11 12 13 14 | 44.7
2'F-ANA at 2 4 5 9 10 11 | 43.7
2'F-ANA at 1 3 6 7 10 13 14 | 66.3
2'F-ANA at 4 5 6 8 10 13 14 | 46.1
2'F-ANA at 4 5 7 8 10 11 12 13 15 | 50.3
2'F-ANA at 1 2 3 4 6 7 8 10 13 | 66.8
2'F-ANA at 1 3 4 7 8 9 10 11 12 13 14 15 | 90.4

Study 4 — method: RNA Bind-n-Seq; form: RNA; matrix: in vitro; concentration: 365 nM; relative to: no-protein control; reading: higher = stronger binding
Target: RNA binding protein fox-1 homolog 2, RRM domain, GST-SBP tag (RBFOX2, Homo sapiens, UniProt O43251-10, residues 100-194)
Setting: natural RNA segment, single round, ends assumed
Shared flanks, not repeated: GGGAGUUCUACAGUCCGACGAUC … UGGAAUUCUCGGGUGCCAA
Target sequence (chain): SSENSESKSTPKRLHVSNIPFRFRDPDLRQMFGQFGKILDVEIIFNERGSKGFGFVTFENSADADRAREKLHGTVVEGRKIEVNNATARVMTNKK
Strand | RBNS enrichment (R)
AUUCAGAGUGGGCCGGGCCCCUGGGCGAGACACAGCUACCUCUGUUGGCAUCUUUUUAAUACCAGGAACCCAGCGGCUCCAGCCACUGAGCAGCUAAAUAAAGUUGGAAA | 0.35
UCUUCCAGUGCAAUGAAAUUCAUAUGGUGUCCCACCUUAUUUAAUGAUGGUACAAUUUAAAAUCUUAGUCAACUUCUGUAGAAAGUUUUCUCUAUGAAAGUAAAGCUGUU | 0.414
CCCUACACUCUCAGUUUACAGAGGCCACUGGGCCUCUGGCUGCAGAAUACAAAGUCCCGGGCUGUUAGAGGAGUCCUUUCCUCUCUGCCUGCCCUUUCCUGUCCCUCCCU | 1.19
GUAGCUGGAUCACCCAAGUAGUAGCCCUUGAUCUCCUUUCAUGACGGAUAGGCUCAGUUAGUCAGGAAUGUUUACACCUCAGUUAACUUCAGUGAUUGACUUAAAGACUG | 0.311
UUUACCAUCUUGGCUUUAGUAGGUAUAGAAGAAAGUGGAUUACCAUCUUUAUUUUGUAAUGUGUUAAAUAAGCAUUAUAUGCUGGUAGAAUCUAGUUUAAUUGUUUCAGG | 0.549
CUCAGUCCCAGCCUCUCCCCUCUACAACUCCUGCCACUGUUGGCCAUGUCGUAAGGCAGCAGCUGUGCCAGGAUAGCUGGGUCCAUUCAGAGCACCUUGAGAAGUGUUGC | 1.08
AUUUCAUAUACUUCCGUCUCGAUGCUGUUAACAACUUCUGAUAACAUGGAAAAUUCAAGGAUUGUUUAAAGGUCUGAUGAUCACACACAAAAUGUAAUUCCGGUUAUUUA | 0.383
AGGUGGCCCUGUCUCAAGCACCUCUCUGGCCCUCUGGUGGCCCUUGCUUAAUAAAGAUUCUCCGAGCCAUUCUGAGUCUCUGUGAGUGAUUCCAAUCAGCUUCAGCCUCA | 0.394

For quick reference, copied from above (study 2):
Strand | E-score
CTCTTATA | 0.291
TAAGTCAA | 0.255
ATAAATGA | 0.253
ACATTCAT | 0.291
ATACTGAT | 0.301
CTATTTAC | 0.311
TAATCACA | 0.284
GTACAATA | 0.298
